{"data": "Results collected from several papers", "note": "“And” joins repeats or separate records; there may be more than shown. ± marks the error that the study gave.", "chain of UniProt P10721 (whole entry, unmodified, looked up)": "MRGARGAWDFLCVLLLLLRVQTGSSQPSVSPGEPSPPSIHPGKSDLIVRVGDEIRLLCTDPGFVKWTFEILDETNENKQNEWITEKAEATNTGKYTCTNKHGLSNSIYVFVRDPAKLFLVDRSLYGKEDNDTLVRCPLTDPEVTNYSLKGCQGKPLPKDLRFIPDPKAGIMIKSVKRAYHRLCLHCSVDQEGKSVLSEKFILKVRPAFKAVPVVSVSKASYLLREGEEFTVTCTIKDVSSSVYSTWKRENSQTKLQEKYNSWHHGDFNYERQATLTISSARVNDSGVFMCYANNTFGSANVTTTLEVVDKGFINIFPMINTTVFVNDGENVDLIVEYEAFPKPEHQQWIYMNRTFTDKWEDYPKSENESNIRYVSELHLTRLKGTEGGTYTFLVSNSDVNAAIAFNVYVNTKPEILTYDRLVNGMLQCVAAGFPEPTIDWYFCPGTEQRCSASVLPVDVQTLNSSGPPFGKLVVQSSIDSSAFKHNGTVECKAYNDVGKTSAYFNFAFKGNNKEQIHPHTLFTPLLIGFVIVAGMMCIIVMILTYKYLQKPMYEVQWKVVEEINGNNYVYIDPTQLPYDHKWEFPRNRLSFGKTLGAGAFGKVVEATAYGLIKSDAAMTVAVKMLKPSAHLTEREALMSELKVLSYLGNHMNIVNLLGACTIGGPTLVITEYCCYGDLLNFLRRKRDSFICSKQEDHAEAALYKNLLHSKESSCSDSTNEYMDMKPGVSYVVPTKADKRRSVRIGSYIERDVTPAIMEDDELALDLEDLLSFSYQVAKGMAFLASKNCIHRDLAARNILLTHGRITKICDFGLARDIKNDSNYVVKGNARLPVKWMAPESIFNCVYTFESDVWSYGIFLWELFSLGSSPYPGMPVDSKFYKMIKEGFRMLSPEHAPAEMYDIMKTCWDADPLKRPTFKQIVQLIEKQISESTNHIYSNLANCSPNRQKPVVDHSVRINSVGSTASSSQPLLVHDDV", "chain of UniProt O75676 (whole entry, looked up)": "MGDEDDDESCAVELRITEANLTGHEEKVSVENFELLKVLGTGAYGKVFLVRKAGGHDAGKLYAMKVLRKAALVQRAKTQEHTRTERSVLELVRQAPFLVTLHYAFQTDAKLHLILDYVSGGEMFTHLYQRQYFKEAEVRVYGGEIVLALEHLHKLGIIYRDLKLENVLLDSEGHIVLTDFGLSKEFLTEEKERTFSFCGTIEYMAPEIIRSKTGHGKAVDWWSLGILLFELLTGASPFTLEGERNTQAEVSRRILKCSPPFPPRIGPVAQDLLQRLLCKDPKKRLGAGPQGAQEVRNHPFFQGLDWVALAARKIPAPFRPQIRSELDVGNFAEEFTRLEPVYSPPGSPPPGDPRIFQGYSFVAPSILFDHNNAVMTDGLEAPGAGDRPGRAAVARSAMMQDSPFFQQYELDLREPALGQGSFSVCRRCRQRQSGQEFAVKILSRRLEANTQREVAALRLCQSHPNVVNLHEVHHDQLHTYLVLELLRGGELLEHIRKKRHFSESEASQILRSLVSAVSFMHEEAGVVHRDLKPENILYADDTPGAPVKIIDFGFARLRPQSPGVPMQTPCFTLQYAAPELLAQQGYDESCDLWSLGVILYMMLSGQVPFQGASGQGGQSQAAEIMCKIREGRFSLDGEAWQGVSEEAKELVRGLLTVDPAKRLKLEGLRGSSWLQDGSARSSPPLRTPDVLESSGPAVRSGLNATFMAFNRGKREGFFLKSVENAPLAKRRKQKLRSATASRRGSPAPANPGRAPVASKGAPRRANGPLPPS"}
{"SMILES": "C=Cc1c(C)c2cc3nc(c(CC(=O)[O-])c4[n-]c(cc5nc(cc1[n-]2)C(C)=C5CC)c(C)c4C(=O)[O-])C(CCC(=O)[O-])C3C.[Cu+2].[Na+].[Na+].[Na+] (stereo not shown)", "system": "Wistar rat, male", "conditions": "oral, 500 mg/kg daily, 28 days", "measurement": "serum creatinine", "result": "0.32 ± 0.04 mg/dL"}
{"SMILES": "CS(C)(=O)=Nc1ccc(-c2ccc(-c3nc4cc(O[C@@H]5CO[C@H]6[C@@H]5OC[C@H]6O)[nH]c4cc3F)cc2)cc1", "tested on": "KIT (Homo sapiens, UniProt P10721, V560G)", "test": "enzyme activity, inhibitor", "conditions": "10 µM", "measurement": "inhibition", "result": "37%"}
{"SMILES": "CC(C)C[C@H](NC(=O)CCS[C@H]1O[C@H](CO)[C@@H](O)[C@H](O)[C@H]1O)C(=O)N1CCC[C@H]1C(=O)N[C@@H](Cc1ccccc1)C(=O)N[C@@H](Cc1ccccc1)C(=O)N[C@@H](CC(=O)O)C(=O)N[C@@H](CC(=O)O)C(=O)N[C@@H](C)C(=O)N[C@@H](Cc1c[nH]cn1)C(=O)N[C@@H](CCCCN)C(N)=O", "test": "RP-HPLC", "system": "50% human serum", "conditions": "100 µM, 24 h, 37 °C", "measurement": "intact peptide remaining", "result": "84%"}
{"SMILES": "COc1ccccc1-c1n[nH]c2nc(N[C@H]3CC[C@H](NS(=O)(=O)CC(C)C)CC3)ncc12", "test": "bead binding, competition bead pull-down, measured: LINJ.35.4540", "system": "Leishmania donovani extract", "conditions": "10 µM", "how to read": "relative to: vehicle", "measurement": "relative abundance", "result": 0.86}
{"SMILES": "CC(C)[C@@H]1NC(=O)CNC(=O)[C@H](CC(N)=O)NC(=O)[C@H](CCCNC(=N)N)NC(=O)[C@H](Cc2ccc(O)cc2)NC(=O)[C@H](C(C)C)NC(=O)[C@@H](NC(=O)[C@@H](NC(=O)[C@H](CC(N)=O)NC(=O)[C@H](Cc2c[nH]c3ccccc23)NC(=O)[C@H](C)NC(=O)[C@H](Cc2ccccc2)NC(=O)CNC(=O)[C@H](CCCCN)NC(=O)[C@H](Cc2ccccc2)NC(=O)[C@H](Cc2ccccc2)NC(=O)[C@H](CCCCN)NC(=O)OCC2c3ccccc3-c3ccccc32)C(C)C)CSSC[C@@H](C(=O)N[C@@H](Cc2c[nH]cn2)C(=O)N[C@@H](CCCNC(=N)N)C(=O)N[C@@H](CCCNC(=N)N)C(=O)N[C@@H](C)C(=O)N[C@@H](CC(N)=O)C(N)=O)NC(=O)[C@H](C(C)C)NC(=O)[C@H](CCCNC(=N)N)NC1=O", "test": "HPLC", "system": "mouse liver homogenate 50 mg/mL", "conditions": "4.00 h", "measurement": "peptide remaining", "result": "46.3% and 40.3% and 43.2%"}
{"SMILES": "CC(C)[C@H](NC(=O)[C@@H](NC(=O)[C@H](CCCNC(=N)N)NC(=O)[C@H](CCCNC(=N)N)NC(=O)[C@H](CCCNC(=N)N)NC(=O)[C@H](CCC(N)=O)NC(=O)[C@H](CCCNC(=N)N)NC(=O)[C@H](CCCNC(=N)N)NC(=O)[C@H](CCCCN)NC(=O)[C@H](CCCCN)NC(=O)[C@H](CCCNC(=N)N)NC(=O)CN)[C@@H](C)O)C(=O)N[C@H](C(=O)N[C@@H](CO)C(=O)N1CCC[C@H]1C(=O)O)[C@@H](C)O", "system": "ICR mice, male, heart", "conditions": "intranasal, 10 mg/kg daily, 4 weeks", "measurement": "organ weight", "result": "0.191 ± 0.03 g"}
{"SMILES": "CC[C@H](C)[C@H](NC(=O)[C@@H](Cc1c[nH]c2ccccc12)NC(=O)[C@@H]1CCCN1C(=O)[C@H](CCCCN)NC(=O)[C@H](CCCCN)NC(=O)CCNC(=O)CCNC(=O)CN1CCN(CC(=O)O)CCN(CC(=O)O)CCN(CC(=O)O)CC1)C(=O)N[C@@H](C[Si](C)(C)C)C(=O)O [gallium-68 labelled]", "system": "nude mouse HT-29 xenograft, muscle", "conditions": "90 min", "measurement": "tissue uptake", "result": "0.1 ± 0.07 %ID/g"}
{"SMILES": "COc1ccccc1-c1n[nH]c2nc(NC3CCN(C(=O)Cc4ccc(F)cc4F)CC3)ncc12", "test": "bead binding, competition bead pull-down, measured: LINJ.24.2150", "system": "Leishmania donovani axenic amastigote extract", "conditions": "10 µM", "how to read": "relative to: vehicle", "measurement": "relative abundance", "result": 1.02}
{"SMILES": "CN(C)[C@H]1C[C@@]23CC[C@@]4(O2)C(=CC[C@]2(C)[C@@H](c5ccc6ccncc6c5)CC[C@H]24)C=C3[C@@H](O)[C@@H]1O", "tested on": "Ribosomal protein S6 kinase alpha-4, N-terminal kinase domain (RPS6KA4, Homo sapiens, UniProt O75676)", "test": "ATP probe labelling, inhibitor, KiNativ profiling", "conditions": "0.1 µM", "measurement": "inhibition", "result": "4%"}
{"SMILES": "CC[C@H](C)[C@H](NC(=O)[C@H](CCCCN)NC(=O)CNC(=O)[C@H](CC(C)C)NC(=O)[C@H](Cc1ccccc1)NC(=O)[C@H](CCCCN)NC(=O)[C@H](CO)NC(=O)[C@H](Cc1ccccc1)NC(=O)[C@H](Cc1c[nH]c2ccccc12)NC(=O)[C@H](CCC(N)=O)NC(=O)[C@@H](NC(=O)[C@H](Cc1ccccc1)NC(=O)CCCCCNC(=O)CN1CCN(CC(=O)O)CCN(CC(=O)O)CCN(CC(=O)O)CC1)C(C)C)C(=O)N[C@@H](CCC(=O)O)C(=O)N1CCC[C@H]1C(=O)N[C@@H](CC(=O)O)C(=O)N[C@H](C(=O)N[C@@H](CO)C(=O)N[C@@H](CCC(N)=O)C(=O)N[C@H](C(=O)N[C@@H](CCC(N)=O)C(=O)N[C@@H](CC(=O)O)C(=O)N1CCC[C@H]1C(=O)N[C@@H](CC(N)=O)C(=O)N[C@@H](CC(=O)O)C(=O)N[C@@H](CCC(N)=O)C(=O)N[C@@H](Cc1ccc(O)cc1)C(=O)N[C@@H](CCC(=O)O)C(=O)N1CCC[C@H]1C(=O)N[C@@H](Cc1ccccc1)C(=O)O)C(C)C)C(C)C [copper-64 labelled]", "system": "C57BL/6 mice, male, tumour-free, stomach", "conditions": "2 h", "measurement": "tissue uptake", "result": "4.28 ± 0.4 %ID/g"}
{"SMILES": "CC(C)(C)C(=O)OCOP(=O)(OCOC(=O)C(C)(C)C)C1CCCN(O)C1=O (stereo not shown)", "tested on": "CCRF-CEM", "measurement": "Log10TGI", "result": "-5.64 log M"}
{"SMILES": "CC(C)[C@H]1NC(=O)C[C@H]2/C=C/CCSSC[C@@H](NC1=O)C(=O)N[C@H](Cc1cccc3ccccc13)C(=O)NCC(=O)O2", "tested on": "KIT (Homo sapiens, UniProt P10721, D816Y)", "test": "enzyme activity, inhibitor", "conditions": "10 µM", "measurement": "inhibition", "result": "2.4%"}
{"SMILES": "CN1Cc2cc(Cl)ccc2-n2c(nnc2C2CCN(c3cccc(F)n3)CC2)C1", "test": "mass spectrometry", "system": "male Sprague-Dawley rat, brain", "conditions": "intravenous, 0.03 mg/kg, 1 h, single dose", "measurement": "concentration", "result": "1.07 ng/mL"}
{"SMILES": "CC[C@H](C)[C@H](NC(=O)[C@H](C)NC(=O)[C@H](CCCCN)NC(=O)[C@H](CC(C)C)NC(=O)[C@@H](N)Cc1ccccc1)C(=O)N[C@@H](CCCCN)C(=O)N[C@@H](CCCCN)C(=O)N[C@@H](Cc1ccccc1)C(=O)NCC(=O)N[C@@H](CCCCN)C(=O)N[C@@H](CCC(=O)O)C(=O)N[C@@H](Cc1ccccc1)C(=O)N[C@@H](CCCCN)C(=O)N[C@@H](CCCCN)C(=O)N[C@H](C(=O)NCC(=O)N[C@@H](C)C(=O)N[C@@H](CCCCN)C(=O)N[C@@H](CC(C)C)C(=O)N[C@@H](CCCCN)C(=O)O)[C@@H](C)CC", "system": "human red blood cells", "conditions": "16 mg/L, 1 h, mean of replicates", "measurement": "hemolysis", "result": "0.204%"}
{"SMILES": "CC(C)(CCCC/C=C/CCCCCC(C)(C)C(=O)O)C(=O)O", "system": "beagle dog, both sexes", "conditions": "oral, dose not given, 2 h", "measurement": "plasma concentration", "result": "21100 ng/mL"}
{"SMILES": "Cc1cc(C)n(-c2nc(-c3ccccc3)cc(=O)n2CC(=O)Nc2cccc([N+](=O)[O-])c2)n1", "system": "human liver microsomes", "conditions": "pH 7.4, together with: NADPH", "measurement": "CLint", "result": "25.2 ± 0.6 µL/min/mg"}
{"SMILES": "CC(C)C[C@@H](NC(=O)[C@@H](CCCNC(=N)N)NC(=O)[C@@H](Cc1c[nH]cn1)NC(=O)[C@@H](Cc1c[nH]c2ccccc12)NC(=O)[C@@H](Cc1c[nH]cn1)NC(=O)[C@@H](Cc1ccccc1)NC(=O)[C@H](NC(=O)[C@@H](Cc1ccc(O)cc1)NC(=O)CNC(=O)CNC(=O)CCOCCOCCOCCNC(=O)CN1CCN(CC(=O)O)CCN(CC(=O)O)CC1)[C@H](C)O)C(=O)N[C@H](CC(N)=O)C(=O)N1CCC[C@@H]1C(=O)O [gallium-68 labelled]", "system": "C57BL/6 mice, male", "conditions": "intravenous, 1.85 MBq, 30 min", "how to read": "relative to: tumour over heart", "measurement": "tissue ratio", "result": "1.08 ± 0.17"}
{"SMILES": "COc1cnc2cccc(N3CCc4c(cc(Cn5ccnc5)cc4-c4cn(C)nc4C(F)(F)F)C3=O)c2c1", "system": "CD-1 mice", "conditions": "intraperitoneal, 50 mg/kg once daily, day 3", "measurement": "body weight", "result": "28.8 ± 1 g"}
{"SMILES": "O=C1NC2(CC2)COc2ncc(F)cc2[C@H]2COCCN2c2ccn3ncc1c3n2", "system": "Sprague-Dawley rats, female, blood", "conditions": "oral, 5 mg/kg/day, end of recovery, 4-week subacute toxicity", "measurement": "APTT", "result": "14.1 ± 1.1 s"}
{"note": "Some of these lines once more:"}
{"SMILES": "CC(C)C[C@@H](NC(=O)[C@@H](CCCNC(=N)N)NC(=O)[C@@H](Cc1c[nH]cn1)NC(=O)[C@@H](Cc1c[nH]c2ccccc12)NC(=O)[C@@H](Cc1c[nH]cn1)NC(=O)[C@@H](Cc1ccccc1)NC(=O)[C@H](NC(=O)[C@@H](Cc1ccc(O)cc1)NC(=O)CNC(=O)CNC(=O)CCOCCOCCOCCNC(=O)CN1CCN(CC(=O)O)CCN(CC(=O)O)CC1)[C@H](C)O)C(=O)N[C@H](CC(N)=O)C(=O)N1CCC[C@@H]1C(=O)O [gallium-68 labelled]", "system": "C57BL/6 mice, male", "conditions": "intravenous, 1.85 MBq, 30 min", "how to read": "relative to: tumour over heart", "measurement": "tissue ratio", "result": "1.08 ± 0.17"}
{"SMILES": "CC(C)[C@@H]1NC(=O)CNC(=O)[C@H](CC(N)=O)NC(=O)[C@H](CCCNC(=N)N)NC(=O)[C@H](Cc2ccc(O)cc2)NC(=O)[C@H](C(C)C)NC(=O)[C@@H](NC(=O)[C@@H](NC(=O)[C@H](CC(N)=O)NC(=O)[C@H](Cc2c[nH]c3ccccc23)NC(=O)[C@H](C)NC(=O)[C@H](Cc2ccccc2)NC(=O)CNC(=O)[C@H](CCCCN)NC(=O)[C@H](Cc2ccccc2)NC(=O)[C@H](Cc2ccccc2)NC(=O)[C@H](CCCCN)NC(=O)OCC2c3ccccc3-c3ccccc32)C(C)C)CSSC[C@@H](C(=O)N[C@@H](Cc2c[nH]cn2)C(=O)N[C@@H](CCCNC(=N)N)C(=O)N[C@@H](CCCNC(=N)N)C(=O)N[C@@H](C)C(=O)N[C@@H](CC(N)=O)C(N)=O)NC(=O)[C@H](C(C)C)NC(=O)[C@H](CCCNC(=N)N)NC1=O", "test": "HPLC", "system": "mouse liver homogenate 50 mg/mL", "conditions": "4.00 h", "measurement": "peptide remaining", "result": "46.3% and 40.3% and 43.2%"}
